Results pooled from the literature.
Parts stem from different laboratories: compare values within a part only.
Chain of UniProt Q7L7X3 (whole entry, looked up): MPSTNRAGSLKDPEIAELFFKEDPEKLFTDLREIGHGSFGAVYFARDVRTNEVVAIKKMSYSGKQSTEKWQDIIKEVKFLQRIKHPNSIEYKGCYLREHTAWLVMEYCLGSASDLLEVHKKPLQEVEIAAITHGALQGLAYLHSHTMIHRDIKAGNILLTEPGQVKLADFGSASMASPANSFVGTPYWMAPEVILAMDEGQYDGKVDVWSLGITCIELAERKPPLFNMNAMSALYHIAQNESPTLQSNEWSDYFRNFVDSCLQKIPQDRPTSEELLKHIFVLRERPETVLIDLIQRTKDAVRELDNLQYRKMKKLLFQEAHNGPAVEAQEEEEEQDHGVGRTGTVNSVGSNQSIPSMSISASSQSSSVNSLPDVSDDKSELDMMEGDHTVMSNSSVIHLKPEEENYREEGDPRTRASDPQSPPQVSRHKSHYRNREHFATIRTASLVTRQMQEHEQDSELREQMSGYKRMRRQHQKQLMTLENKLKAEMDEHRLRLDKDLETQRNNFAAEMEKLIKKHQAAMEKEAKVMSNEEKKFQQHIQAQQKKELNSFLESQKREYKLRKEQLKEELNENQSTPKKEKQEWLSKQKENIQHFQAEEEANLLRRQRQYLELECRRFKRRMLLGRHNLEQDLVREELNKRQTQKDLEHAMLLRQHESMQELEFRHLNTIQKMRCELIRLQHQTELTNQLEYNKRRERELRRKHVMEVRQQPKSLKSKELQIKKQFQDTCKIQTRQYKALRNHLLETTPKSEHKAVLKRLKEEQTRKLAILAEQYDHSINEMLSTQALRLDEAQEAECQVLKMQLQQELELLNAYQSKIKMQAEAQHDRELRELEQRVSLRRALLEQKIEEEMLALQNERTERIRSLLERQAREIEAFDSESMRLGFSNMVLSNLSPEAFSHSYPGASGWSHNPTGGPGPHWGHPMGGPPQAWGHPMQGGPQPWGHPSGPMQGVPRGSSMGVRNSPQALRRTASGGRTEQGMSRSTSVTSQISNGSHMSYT
Chain of UniProt O75747 (whole entry, looked up): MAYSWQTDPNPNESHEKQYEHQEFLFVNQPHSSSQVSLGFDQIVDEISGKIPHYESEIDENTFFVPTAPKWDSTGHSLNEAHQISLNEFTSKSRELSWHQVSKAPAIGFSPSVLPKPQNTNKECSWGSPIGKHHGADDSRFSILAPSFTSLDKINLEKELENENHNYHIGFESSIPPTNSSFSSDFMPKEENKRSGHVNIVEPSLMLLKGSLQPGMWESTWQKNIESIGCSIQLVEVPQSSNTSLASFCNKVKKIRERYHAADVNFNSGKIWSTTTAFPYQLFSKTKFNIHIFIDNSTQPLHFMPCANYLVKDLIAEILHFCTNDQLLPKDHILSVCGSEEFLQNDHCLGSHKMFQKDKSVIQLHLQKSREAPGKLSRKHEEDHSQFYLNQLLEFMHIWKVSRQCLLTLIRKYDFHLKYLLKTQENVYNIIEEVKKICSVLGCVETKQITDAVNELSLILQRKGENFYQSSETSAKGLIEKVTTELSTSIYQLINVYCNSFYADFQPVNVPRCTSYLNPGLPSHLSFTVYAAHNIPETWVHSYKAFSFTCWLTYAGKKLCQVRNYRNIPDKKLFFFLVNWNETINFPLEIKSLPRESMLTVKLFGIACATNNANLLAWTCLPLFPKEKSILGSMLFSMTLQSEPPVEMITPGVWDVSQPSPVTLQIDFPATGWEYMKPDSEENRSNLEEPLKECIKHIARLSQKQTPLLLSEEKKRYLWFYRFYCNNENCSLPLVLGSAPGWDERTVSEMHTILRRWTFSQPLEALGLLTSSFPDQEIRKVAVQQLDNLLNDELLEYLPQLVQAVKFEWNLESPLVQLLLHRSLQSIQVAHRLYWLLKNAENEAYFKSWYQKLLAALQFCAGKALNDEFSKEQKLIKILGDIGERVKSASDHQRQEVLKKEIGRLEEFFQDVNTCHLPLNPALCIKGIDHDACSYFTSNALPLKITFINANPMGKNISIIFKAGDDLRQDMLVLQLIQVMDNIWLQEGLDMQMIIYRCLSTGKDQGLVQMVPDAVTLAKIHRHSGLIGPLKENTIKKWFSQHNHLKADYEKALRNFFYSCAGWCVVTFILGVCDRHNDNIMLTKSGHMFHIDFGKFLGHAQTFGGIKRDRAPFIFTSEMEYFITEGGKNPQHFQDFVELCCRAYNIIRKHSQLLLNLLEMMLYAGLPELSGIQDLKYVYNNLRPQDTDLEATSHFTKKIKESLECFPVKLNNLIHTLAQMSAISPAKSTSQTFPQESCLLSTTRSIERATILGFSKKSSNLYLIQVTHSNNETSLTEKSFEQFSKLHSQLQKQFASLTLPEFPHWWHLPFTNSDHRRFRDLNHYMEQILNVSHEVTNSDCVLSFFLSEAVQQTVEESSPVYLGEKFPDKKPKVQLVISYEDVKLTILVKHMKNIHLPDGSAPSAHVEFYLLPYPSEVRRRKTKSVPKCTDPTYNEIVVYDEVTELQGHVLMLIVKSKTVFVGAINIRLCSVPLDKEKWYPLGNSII
Chain of UniProt P10721 (whole entry, unmodified, looked up): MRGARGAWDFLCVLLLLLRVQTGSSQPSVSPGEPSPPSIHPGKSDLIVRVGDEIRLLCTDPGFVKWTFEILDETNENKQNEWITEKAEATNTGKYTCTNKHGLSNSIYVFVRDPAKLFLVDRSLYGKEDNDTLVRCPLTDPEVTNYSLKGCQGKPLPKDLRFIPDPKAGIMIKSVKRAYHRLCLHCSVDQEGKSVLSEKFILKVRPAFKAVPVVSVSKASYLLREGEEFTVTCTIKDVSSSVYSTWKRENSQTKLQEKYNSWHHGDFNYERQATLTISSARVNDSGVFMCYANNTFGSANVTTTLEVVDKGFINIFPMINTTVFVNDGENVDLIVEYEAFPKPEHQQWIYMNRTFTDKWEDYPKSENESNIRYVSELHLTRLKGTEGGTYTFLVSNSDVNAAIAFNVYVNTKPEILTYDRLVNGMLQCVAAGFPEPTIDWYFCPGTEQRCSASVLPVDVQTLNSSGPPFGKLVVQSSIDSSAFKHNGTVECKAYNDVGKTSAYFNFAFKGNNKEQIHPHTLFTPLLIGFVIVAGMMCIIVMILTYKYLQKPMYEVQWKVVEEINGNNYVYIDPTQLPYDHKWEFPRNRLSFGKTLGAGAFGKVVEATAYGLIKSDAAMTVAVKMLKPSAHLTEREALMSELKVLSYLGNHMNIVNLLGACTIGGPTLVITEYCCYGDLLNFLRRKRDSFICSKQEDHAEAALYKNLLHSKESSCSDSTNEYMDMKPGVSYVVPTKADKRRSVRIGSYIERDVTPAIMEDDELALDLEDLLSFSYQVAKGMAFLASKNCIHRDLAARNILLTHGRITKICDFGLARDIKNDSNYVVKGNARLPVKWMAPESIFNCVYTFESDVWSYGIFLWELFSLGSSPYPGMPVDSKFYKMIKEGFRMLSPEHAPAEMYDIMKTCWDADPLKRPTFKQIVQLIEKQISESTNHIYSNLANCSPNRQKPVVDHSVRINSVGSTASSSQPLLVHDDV
Chain of UniProt O75676 (whole entry, looked up): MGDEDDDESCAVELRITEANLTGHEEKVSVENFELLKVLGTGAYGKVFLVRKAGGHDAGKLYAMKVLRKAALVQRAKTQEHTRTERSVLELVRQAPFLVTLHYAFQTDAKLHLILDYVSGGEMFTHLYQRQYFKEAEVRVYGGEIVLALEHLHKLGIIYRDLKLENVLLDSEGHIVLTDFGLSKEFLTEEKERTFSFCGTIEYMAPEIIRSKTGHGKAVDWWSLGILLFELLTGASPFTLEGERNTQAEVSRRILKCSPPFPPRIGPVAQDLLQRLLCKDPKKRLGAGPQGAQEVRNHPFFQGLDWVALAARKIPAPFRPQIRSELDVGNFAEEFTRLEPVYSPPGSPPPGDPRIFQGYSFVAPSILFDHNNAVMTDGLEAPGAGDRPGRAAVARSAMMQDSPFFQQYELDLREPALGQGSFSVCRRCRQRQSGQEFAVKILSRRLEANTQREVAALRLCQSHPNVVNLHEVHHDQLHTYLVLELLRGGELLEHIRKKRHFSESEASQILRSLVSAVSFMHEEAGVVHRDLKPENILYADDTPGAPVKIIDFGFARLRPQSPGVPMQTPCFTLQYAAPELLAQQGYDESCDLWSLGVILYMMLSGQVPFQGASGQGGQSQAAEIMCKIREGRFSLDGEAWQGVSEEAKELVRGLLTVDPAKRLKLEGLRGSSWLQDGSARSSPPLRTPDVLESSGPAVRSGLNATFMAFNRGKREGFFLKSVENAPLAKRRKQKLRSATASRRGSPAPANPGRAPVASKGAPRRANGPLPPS
Chain of UniProt Q9H4B4 (whole entry, looked up): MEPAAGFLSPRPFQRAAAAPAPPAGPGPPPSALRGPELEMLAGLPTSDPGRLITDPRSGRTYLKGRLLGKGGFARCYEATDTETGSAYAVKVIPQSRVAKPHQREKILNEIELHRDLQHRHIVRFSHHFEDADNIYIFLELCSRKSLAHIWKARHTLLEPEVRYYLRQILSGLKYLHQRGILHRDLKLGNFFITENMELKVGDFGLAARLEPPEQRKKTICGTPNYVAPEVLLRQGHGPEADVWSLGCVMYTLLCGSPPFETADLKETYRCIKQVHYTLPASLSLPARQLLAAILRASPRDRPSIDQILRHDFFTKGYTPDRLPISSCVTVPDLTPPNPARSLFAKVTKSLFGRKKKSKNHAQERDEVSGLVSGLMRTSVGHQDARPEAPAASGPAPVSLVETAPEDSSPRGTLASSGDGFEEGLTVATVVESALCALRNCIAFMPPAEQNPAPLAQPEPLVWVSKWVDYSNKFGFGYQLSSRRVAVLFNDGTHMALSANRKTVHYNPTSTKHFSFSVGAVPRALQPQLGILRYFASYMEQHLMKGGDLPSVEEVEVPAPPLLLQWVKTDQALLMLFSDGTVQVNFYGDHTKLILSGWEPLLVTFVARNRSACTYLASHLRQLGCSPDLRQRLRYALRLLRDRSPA

Block 1
Structure (SMILES): CC(C)CCN1c2nc(Nc3cc(F)c(O)c(F)c3)ncc2N(C)C(=O)C1C (stereo not shown)
| target | Kd [nM] |
| --- | --- |
| MYLK (Homo sapiens, UniProt Q15746) | > 3000 |
| TAOK1 (Homo sapiens, UniProt Q7L7X3) | 94 |
| CSNK1A1 (Homo sapiens, UniProt P48729) | 66 |
| KIT (Homo sapiens, UniProt P10721, V559D/V654A) | 37 |
| TNIK (Homo sapiens, UniProt Q9UKE5) | 110 |
| CSNK1A1L (Homo sapiens, UniProt Q8N752) | 21 |
| Tyrosine-protein kinase JAK1, JH2 pseudokinase domain (JAK1, Homo sapiens, UniProt P23458) | 63 |

Block 2 — observed: cell-free assay; technique: competition with immobilised ligand; concentration: 1 µM
Structure (SMILES): CCC(=O)N[C@H]1CC[C@@H](C(=O)N(C)c2ccc(-c3nc4ccccc4o3)cc2)C1
| target | remaining binding |
| --- | --- |
| CDK17 (Homo sapiens, UniProt Q00537) | 100% |
| PIK3CA (Homo sapiens, UniProt P42336, H1047L) | 78% |
| TAOK1 (Homo sapiens, UniProt Q7L7X3) | 100% |
| PIK3C2G (Homo sapiens, UniProt O75747) | 86% |
| ABL2 (Homo sapiens, UniProt P42684) | 100% |
| SLK (Homo sapiens, UniProt Q9H2G2) | 92% |
| MYLK2 (Homo sapiens, UniProt Q9H1R3) | 85% |
| PLK3 (Homo sapiens, UniProt Q9H4B4) | 74% |
| PTK2B (Homo sapiens, UniProt Q14289) | 100% |
| SGK2 (Homo sapiens, UniProt Q9HBY8) | 93% |
| CSNK2A2 (Homo sapiens, UniProt P19784) | 100% |
| PRKD1 (Homo sapiens, UniProt Q15139) | 100% |

Block 3 — Compound: O=C(Nc1ccccc1)Nc1cccc(Oc2ccc3nccn3n2)c1; concentration: 1 µM
| target | test | conditions | scale | remaining binding [%] |
| --- | --- | --- | --- | --- |
| PIP4K2B (Homo sapiens, UniProt P78356) | competitive binding panel, measured: PIP5K2B | – | reference: vehicle | 85 |
| PIK3C2G (Homo sapiens, UniProt O75747) | competitive binding panel | – | reference: vehicle | 100 |
| EIF2AK2 (Homo sapiens, UniProt P19525) | competitive binding | PRKR | – | 100 |
| CAMK2G (Homo sapiens, UniProt Q13555) | competitive binding panel | – | reference: vehicle | 97 |
| CDC42BPA (Homo sapiens, UniProt Q5VT25) | competitive binding | MRCKA | – | 99 |
| GAK (Homo sapiens, UniProt O14976) | competitive binding panel | – | reference: vehicle | 100 |
| HIPK2 (Homo sapiens, UniProt Q9H2X6) | competitive binding panel | – | reference: vehicle | 73 |
| LATS2 (Homo sapiens, UniProt Q9NRM7) | competitive binding panel | – | reference: vehicle | 70 |

Block 4 — observed: enzyme activity; mode: inhibitor; concentration: 0.5 µM; reference: control
SMILES: c1cc(-c2cnn3cc(-c4ccc(OCCN5CCCCC5)cc4)cnc23)ccn1
| target | remaining activity [%] |
| --- | --- |
| MAPK11 (Homo sapiens, UniProt Q15759) | 96.9 |
| CLK4 (Homo sapiens, UniProt Q9HAZ1) | 5.73 |
| DDR2 (Homo sapiens, UniProt Q16832) | 90.2 |
| MET (Homo sapiens, UniProt P08581) | 91.1 |
| PAK3 (Homo sapiens, UniProt O75914) | 102 |
| MAPK14 (Homo sapiens, UniProt Q16539) | 92.2 |
| NEK3 (Homo sapiens, UniProt P51956) | 111 |
| ROCK1 (Homo sapiens, UniProt Q13464) | 92.2 |
| MARK4 (Homo sapiens, UniProt Q96L34) | 48.3 |
| MARK2 (Homo sapiens, UniProt Q7KZI7) | 53.1 |
| RPS6KA4 (Homo sapiens, UniProt O75676) | 89.2 |
| TXK (Homo sapiens, UniProt P42681) | 54.4 |
| PRKG2 (Homo sapiens, UniProt Q13237) | 77.4 |

For quick reference, copied from above (block 2):
| target | remaining binding |
| --- | --- |
| PIK3CA (Homo sapiens, UniProt P42336, H1047L) | 78% |
| TAOK1 (Homo sapiens, UniProt Q7L7X3) | 100% |
| PIK3C2G (Homo sapiens, UniProt O75747) | 86% |
